Published values pooled from the literature.
Every numbered part comes from another study and shows a few of its results, in no order. Changes are numbered by the printed parent chain.
Chain of UniProt Q06187 (whole entry, looked up): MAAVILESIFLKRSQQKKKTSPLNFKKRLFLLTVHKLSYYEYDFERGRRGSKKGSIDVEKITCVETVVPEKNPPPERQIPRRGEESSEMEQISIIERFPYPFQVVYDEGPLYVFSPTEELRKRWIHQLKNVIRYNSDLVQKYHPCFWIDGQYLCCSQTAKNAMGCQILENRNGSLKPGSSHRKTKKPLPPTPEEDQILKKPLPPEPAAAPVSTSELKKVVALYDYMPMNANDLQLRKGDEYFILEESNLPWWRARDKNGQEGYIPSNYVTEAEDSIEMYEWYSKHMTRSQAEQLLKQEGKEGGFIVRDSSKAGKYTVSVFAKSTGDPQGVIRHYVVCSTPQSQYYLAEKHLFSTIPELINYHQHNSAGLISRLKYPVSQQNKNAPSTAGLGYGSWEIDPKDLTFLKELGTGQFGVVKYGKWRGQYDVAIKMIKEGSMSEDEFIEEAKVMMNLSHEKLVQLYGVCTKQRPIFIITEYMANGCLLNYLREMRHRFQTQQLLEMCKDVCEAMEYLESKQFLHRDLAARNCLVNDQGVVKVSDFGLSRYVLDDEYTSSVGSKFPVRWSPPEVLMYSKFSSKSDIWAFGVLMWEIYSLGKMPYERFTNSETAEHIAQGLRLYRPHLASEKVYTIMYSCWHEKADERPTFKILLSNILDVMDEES
Chain of UniProt Q13523 (whole entry, looked up): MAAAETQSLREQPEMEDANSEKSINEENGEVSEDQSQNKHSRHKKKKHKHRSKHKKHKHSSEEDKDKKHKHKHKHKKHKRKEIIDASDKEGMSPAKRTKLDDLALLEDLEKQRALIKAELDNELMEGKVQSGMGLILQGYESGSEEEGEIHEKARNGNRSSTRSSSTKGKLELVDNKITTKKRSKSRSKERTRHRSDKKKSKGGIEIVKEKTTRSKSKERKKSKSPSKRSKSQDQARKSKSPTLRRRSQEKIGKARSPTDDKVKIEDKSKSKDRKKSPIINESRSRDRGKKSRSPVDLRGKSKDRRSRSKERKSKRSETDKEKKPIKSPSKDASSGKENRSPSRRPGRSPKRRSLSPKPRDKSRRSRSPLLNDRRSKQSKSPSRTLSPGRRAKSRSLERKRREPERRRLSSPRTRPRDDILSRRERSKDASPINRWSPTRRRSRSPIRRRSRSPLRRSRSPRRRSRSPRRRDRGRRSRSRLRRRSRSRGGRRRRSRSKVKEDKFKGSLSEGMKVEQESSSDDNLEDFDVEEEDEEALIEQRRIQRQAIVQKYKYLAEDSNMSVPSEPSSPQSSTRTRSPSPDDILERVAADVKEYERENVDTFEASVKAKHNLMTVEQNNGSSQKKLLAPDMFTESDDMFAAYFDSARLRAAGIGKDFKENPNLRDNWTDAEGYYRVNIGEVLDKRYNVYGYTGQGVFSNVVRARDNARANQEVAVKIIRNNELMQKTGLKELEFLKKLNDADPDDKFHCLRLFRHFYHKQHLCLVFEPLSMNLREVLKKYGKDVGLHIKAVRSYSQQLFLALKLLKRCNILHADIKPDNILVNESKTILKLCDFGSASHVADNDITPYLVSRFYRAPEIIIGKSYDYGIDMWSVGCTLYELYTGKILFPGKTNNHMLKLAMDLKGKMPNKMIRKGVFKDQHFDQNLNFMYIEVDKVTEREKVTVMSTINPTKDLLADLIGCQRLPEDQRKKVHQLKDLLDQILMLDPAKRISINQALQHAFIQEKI
Chain of UniProt Q9UM73 (whole entry, unmodified, looked up): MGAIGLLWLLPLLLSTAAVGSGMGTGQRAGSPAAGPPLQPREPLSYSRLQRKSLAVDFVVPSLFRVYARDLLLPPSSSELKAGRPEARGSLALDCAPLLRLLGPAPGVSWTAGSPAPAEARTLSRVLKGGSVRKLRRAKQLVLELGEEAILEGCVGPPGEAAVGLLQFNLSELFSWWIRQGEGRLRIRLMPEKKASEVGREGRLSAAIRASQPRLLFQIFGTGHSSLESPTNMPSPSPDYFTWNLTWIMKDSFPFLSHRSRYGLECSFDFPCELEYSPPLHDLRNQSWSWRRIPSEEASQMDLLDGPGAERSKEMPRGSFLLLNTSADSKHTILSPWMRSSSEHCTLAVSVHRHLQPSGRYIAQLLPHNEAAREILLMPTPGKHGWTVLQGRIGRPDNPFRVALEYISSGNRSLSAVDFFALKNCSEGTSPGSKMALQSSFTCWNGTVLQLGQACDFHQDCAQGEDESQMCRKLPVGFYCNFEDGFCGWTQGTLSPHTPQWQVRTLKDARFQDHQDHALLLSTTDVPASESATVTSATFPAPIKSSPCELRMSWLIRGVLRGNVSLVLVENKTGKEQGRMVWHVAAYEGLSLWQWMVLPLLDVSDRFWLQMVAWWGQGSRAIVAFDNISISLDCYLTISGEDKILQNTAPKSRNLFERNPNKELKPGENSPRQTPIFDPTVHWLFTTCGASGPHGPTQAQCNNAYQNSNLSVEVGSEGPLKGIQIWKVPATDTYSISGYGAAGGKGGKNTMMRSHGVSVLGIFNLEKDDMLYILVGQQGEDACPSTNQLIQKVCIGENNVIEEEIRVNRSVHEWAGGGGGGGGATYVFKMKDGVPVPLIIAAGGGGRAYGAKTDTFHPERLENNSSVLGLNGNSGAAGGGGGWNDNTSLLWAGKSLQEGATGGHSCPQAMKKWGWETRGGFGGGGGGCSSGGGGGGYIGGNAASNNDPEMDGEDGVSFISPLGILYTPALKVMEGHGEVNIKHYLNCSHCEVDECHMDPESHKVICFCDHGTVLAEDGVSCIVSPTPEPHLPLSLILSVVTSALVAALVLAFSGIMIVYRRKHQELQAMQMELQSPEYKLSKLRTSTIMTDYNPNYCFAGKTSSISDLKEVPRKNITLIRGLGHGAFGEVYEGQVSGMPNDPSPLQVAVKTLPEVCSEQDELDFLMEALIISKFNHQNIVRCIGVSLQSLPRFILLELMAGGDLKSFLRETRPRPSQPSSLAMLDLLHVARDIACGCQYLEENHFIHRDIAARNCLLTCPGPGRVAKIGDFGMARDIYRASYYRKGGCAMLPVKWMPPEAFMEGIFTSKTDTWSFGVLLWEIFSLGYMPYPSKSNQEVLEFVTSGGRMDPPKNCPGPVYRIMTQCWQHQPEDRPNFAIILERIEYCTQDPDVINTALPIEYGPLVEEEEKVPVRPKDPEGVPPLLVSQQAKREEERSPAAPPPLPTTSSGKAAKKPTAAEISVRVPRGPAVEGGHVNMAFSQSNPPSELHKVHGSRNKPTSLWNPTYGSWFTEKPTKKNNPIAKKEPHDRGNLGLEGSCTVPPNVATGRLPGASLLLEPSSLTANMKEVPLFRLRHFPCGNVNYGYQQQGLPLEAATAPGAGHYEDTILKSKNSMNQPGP
Chain of UniProt O96013 (whole entry, looked up): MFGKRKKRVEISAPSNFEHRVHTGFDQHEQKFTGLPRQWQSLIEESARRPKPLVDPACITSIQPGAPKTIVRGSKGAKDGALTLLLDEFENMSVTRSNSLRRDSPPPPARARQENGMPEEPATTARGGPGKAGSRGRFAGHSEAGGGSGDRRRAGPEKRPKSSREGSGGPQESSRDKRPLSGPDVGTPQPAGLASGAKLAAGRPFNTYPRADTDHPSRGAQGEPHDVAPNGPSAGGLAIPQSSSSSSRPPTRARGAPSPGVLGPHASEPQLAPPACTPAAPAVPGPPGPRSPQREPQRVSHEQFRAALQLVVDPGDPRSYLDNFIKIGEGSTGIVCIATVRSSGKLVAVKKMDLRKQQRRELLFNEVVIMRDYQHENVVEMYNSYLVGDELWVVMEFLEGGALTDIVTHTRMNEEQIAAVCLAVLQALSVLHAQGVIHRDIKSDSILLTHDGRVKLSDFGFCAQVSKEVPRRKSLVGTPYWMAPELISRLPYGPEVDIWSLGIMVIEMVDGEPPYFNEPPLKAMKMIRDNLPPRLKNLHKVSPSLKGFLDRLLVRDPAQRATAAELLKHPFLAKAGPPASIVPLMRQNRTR
Chain of UniProt Q52WX2 (whole entry, looked up): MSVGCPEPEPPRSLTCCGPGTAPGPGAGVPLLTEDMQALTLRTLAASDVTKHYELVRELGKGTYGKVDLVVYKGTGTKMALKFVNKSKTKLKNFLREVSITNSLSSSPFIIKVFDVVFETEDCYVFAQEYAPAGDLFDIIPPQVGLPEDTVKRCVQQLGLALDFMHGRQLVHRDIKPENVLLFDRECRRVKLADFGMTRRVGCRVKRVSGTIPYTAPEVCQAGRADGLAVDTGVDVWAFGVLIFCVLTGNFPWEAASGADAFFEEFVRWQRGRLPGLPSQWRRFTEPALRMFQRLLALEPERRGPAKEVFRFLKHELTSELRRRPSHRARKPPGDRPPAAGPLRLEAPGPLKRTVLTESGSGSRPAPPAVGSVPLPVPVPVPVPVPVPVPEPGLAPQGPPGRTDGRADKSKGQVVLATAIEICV
Chain of UniProt Q8TD08 (whole entry, looked up): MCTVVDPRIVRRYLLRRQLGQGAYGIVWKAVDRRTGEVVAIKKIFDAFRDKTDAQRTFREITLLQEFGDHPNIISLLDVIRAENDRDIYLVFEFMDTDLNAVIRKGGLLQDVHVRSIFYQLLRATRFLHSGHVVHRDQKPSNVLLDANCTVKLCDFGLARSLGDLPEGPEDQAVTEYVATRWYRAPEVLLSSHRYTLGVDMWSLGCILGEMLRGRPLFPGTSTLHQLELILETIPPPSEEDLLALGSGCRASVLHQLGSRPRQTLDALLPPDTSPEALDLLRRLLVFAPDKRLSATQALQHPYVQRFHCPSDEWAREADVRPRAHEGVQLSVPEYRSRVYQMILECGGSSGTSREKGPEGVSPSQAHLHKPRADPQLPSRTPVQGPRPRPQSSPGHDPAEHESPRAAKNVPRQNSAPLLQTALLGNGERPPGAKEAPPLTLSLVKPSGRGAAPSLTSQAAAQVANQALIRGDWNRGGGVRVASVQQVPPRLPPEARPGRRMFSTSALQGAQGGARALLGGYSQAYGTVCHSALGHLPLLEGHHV

Study 1 — technique: competition with immobilised ligand; concentration: 1 µM; measurement: remaining binding
Compound: O=C(O)[C@H]1[C@H](Cn2nnc3ccccc3c2=O)CC[C@@H]1C(=O)c1ccc(OCCC2CCOCC2)cc1
PRPF4B (Homo sapiens, UniProt Q13523); cell-free assay: 67%
EPHA6 (Homo sapiens, UniProt Q9UF33); cell-free assay: 85%
BTK (Homo sapiens, UniProt Q06187); cell-free assay: 100%
ALK (Homo sapiens, UniProt Q9UM73, C1156Y); cell-free assay: 100%
SBK1 (Homo sapiens, UniProt Q52WX2); cell-free assay: 68%
STK35 (Homo sapiens, UniProt Q8TDR2); cell-free assay: 100%
PRKD3 (Homo sapiens, UniProt O94806); cell-free assay: 88%
MAPK15 (Homo sapiens, UniProt Q8TD08); cell-free assay: 100%
CILK1 (Homo sapiens, UniProt Q9UPZ9); binding: 98%
PAK4 (Homo sapiens, UniProt O96013); cell-free assay: 91%

Study 2 — target: CRIPT, C-terminal peptide; technique: DHFR complementation, deep sequencing; sample: yeast; baseline: wild type; reading: higher = weaker binding; measurement: binding free energy change
Notes: single substitutions, model-inferred values
Parent: ERBIN, PDZ domain 1 (human); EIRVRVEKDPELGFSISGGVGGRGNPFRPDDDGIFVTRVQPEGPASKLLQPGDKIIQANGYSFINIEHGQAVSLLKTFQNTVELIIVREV; partner TKNYKQTSV
E89Y: 0.0873 kcal/mol
R88V: 0.255 kcal/mol
T81W: -0.0808 kcal/mol
P41D: 0.275 kcal/mol
P41Q: 0.209 kcal/mol
P26C: 0.8 kcal/mol
R23K: 0.337 kcal/mol
V36R: 0.583 kcal/mol

Study 3 — technique: universal PBM; form: double-stranded DNA, one strand shown; sample: in vitro; concentration: not given; reading: higher = stronger binding; measurement: E-score
Target: Sal-like protein 4, full length isoform B (SALL4, Homo sapiens, UniProt Q9UJQ4-2, residues 1-616)
Notes: 8-mer, flanks averaged, mean of replicates
Target sequence (chain): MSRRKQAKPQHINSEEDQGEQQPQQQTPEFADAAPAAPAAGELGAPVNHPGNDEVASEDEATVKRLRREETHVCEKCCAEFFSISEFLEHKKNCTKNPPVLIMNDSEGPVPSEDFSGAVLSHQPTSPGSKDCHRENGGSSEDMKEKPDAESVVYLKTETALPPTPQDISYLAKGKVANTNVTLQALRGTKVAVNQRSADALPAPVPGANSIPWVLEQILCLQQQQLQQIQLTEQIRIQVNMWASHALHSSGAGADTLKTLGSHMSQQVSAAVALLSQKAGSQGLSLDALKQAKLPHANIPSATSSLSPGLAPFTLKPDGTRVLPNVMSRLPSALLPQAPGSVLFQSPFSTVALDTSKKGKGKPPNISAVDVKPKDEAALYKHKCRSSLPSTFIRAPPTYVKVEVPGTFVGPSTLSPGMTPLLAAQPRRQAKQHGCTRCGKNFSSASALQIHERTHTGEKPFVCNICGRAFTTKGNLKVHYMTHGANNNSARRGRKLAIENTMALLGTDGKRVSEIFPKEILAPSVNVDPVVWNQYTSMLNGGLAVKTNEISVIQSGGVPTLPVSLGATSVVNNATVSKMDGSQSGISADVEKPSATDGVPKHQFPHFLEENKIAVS
AATGCTGA: 0.0529
CAGGACCC: -0.359
AGCTGCTA: -0.122
ATTATTGC: 0.357
CTTCACCA: -0.0942
AAGATGAT: 0.211
CGCACAAG: -0.0994
CGATGAAG: 0.0298

Mixed results
Cc1cn(-c2cc(NC(=O)c3ccc(C)c(Nc4nccc(-c5cccnc5)n4)c3)cc(C(F)(F)F)c2)cn1
remaining activity (Activated CDC42 kinase 1 (TNK2, Homo sapiens, UniProt Q07912); kinase activity; 0.5 µM, together with: ATP 10 µM; baseline: untreated): 82.6%
